Results collected from several papers.
Protocols differ between the studies behind these lines.
Organism: Escherichia coli

CC(C)C[C@H](NC(=O)[C@@H](NC(=O)[C@H](CCCCN)NC(=O)[C@H](CCCCN)NC(=O)[C@H](CC(C)C)NC(=O)[C@H](Cc1c[nH]c2ccccc12)NC(=O)[C@H](CCCCN)NC(=O)[C@H](CC(C)C)NC(=O)[C@H](CC(C)C)NC(=O)[C@H](CCCCN)NC(=O)[C@H](CCCCN)NC(=O)[C@@H](N)C(C)C)C(C)C)C(N)=O  MIC (24 h, 37 °C, Mueller-Hinton broth, MgCl2 1 mM): 64 µM
C#CCNC(=O)C(C)(C)O/N=C(\C(=O)N[C@@H]1C(=O)N(S(=O)(=O)O)[C@H]1C)c1csc(N)n1  MIC (agar dilution; CDC 1001728 NDM-1): 16 µg/mL
CC(C)C[C@H](NC(=O)[C@H](CCCNC(=N)N)NC(=O)CNC(=O)CNC(=O)[C@@H](N)CCCNC(=N)N)C(=O)N[C@H]1CSSC[C@@H](C(=O)N[C@H](C(=O)NCC(=O)N[C@@H](CCCNC(=N)N)C(N)=O)C(C)C)NC(=O)[C@H](C(C)C)NC(=O)[C@@H]2CSSC[C@H](NC(=O)[C@H](Cc3ccc(O)cc3)NC1=O)C(=O)N[C@@H](CCCNC(=N)N)C(=O)N[C@@H](CCCNC(=N)N)C(=O)N[C@@H](CCCNC(=N)N)C(=O)N[C@@H](Cc1ccccc1)C(=O)N2  MIC (broth dilution; K12 BW25113; 18 h, 37 °C): 1.8 µM
CCCCCCCC[C@@H]1NC(=O)[C@@H](Cc2ccccc2)NC(=O)[C@H](CCN)NC(=O)[C@@H](NC(=O)[C@H](CCN)NC(=O)[C@@H](NC(=O)[C@H](CCN)NC(=O)CCCCCCC)[C@@H](C)O)CCNC(=O)[C@H]([C@@H](C)O)NC(=O)[C@H](CCN)NC(=O)[C@H](CCN)NC1=O  MIC (broth microdilution; mcr-1, colistin-resistant): 1 to 2 µg/mL
CC[C@H](C)[C@H](NC(=O)[C@H](CCCNC(=N)N)NC(=O)[C@H](CO)NC(=O)[C@H](Cc1ccc(O)cc1)NC(=O)[C@@H](NC(=O)[C@@H](NC(=O)[C@H](C)NC(=O)CNC(=O)[C@H](CCCCN)NC(=O)[C@H](CCCCN)NC(=O)CCNC(=O)CCCCCNC(=O)[C@H](CCCNC(=N)N)NC(=O)CCCCCNC(=O)[C@H](CCCNC(=N)N)NC(=O)[C@H](CCCNC(=N)N)NC(=O)CCCCCNC(=O)[C@H](CCCNC(=N)N)NC(=O)[C@H](CCCNC(=N)N)NC(=O)CCCCCNC(=O)[C@H](CCCNC(=N)N)NC(=O)[C@H](CCCNC(=N)N)NC(=O)CCCCCNC(=O)[C@@H](N)CCCNC(=N)N)C(C)C)[C@@H](C)O)C(=O)N[C@@H](CO)C(=O)NCC(=O)N[C@@H](CCC(N)=O)C(=O)N[C@@H](Cc1ccc(O)cc1)C(=O)N[C@@H](CCCCN)C(=O)O  MIC (ATCC 25922; 1 h, 37 °C, serum, fetal bovine, after 12.5%): 6 µM
CC[C@H](C)[C@H](NC(=O)[C@@H](CCCNC(=N)N)NC(=O)[C@H](CCCNC(=N)N)NC(=O)[C@H](Cc1ccc(O)cc1)NC(=O)[C@H](Cc1c[nH]c2ccccc12)NC(=O)[C@H](CCCNC(=N)N)NC(=O)[C@@H]1CCCN1C(=O)[C@H](CCCNC(=N)N)NC(=O)[C@@H]1CCCN1C(=O)[C@H](CC(C)C)NC(=O)[C@H](Cc1ccc(O)cc1)NC(=O)[C@@H]1CCCN1C(=O)[C@@H]1CCCN1C(=O)[C@H](CCCCN)NC(=O)[C@H](CC(=O)O)NC(=O)[C@@H](N)C(C)C)C(=O)N[C@@H](Cc1ccc(O)cc1)C(=O)N[C@@H](CC(N)=O)C(=O)N[C@H](CCCNC(=N)N)C(N)=O  MIC (broth microdilution; ATCC 25922; 18 h, 37 °C, 25% MHB2): 8 µg/mL
N=C(N)NCCC[C@@H]1NC(=O)[C@H](CCCNC(=N)N)NC(=O)[C@@H](CCCNC(=N)N)NC(=O)[C@@H](CCCNC(=N)N)NC(=O)[C@@H](C(c2ccccc2)c2ccccc2)NC(=O)[C@H](Cc2c[nH]c3ccccc23)NC(=O)[C@@H](C(c2ccccc2)c2ccccc2)NC1=O  MIC (ATCC BAA-2452, NDM-1 CRE): 8 µg/mL
CC[C@H](C)[C@H](NC(=O)[C@@H](CCCNC(=N)N)NC(=O)[C@H](CCCNC(=N)N)NC(=O)[C@@H]1CCCN1C(=O)[C@@H]1CCCN1C(=O)[C@H](CCCNC(=N)N)NC(=O)[C@@H]1CCCN1C(=O)[C@H](CCCNC(=N)N)NC(=O)[C@@H]1CCCN1C(=O)[C@H](CC(C)C)NC(=O)[C@H](Cc1c[nH]cn1)NC(=O)[C@@H]1CCCN1C(=O)[C@@H]1CCCN1C(=O)[C@H](CCCCN)NC(=O)[C@H](CC(=O)O)NC(=O)[C@@H](N)C(C)C)C(=O)N[C@@H](Cc1ccc(O)cc1)C(=O)N[C@@H](CC(N)=O)C(=O)N[C@H](CCCNC(=N)N)C(N)=O  MIC (broth microdilution; ATCC 25922; 18 h, 37 °C, 25% MHB2): 4 µg/mL
CO[C@@H](C(N)=O)[C@H](NC(=O)c1ccc(NC(=O)[C@@H](N)Cc2ccc(O)cc2)cc1)C(=O)Nc1ccc(C(=O)Nc2ccc(C(=O)Nc3ccc(C(=O)O)cc3)c(O)c2OC(C)C)cc1  MIC (glutathione S-transferase-like clone; 16 h, 37 °C): 1 µg/mL
CC[C@H](C)[C@H](NC(=O)[C@H](CCCCN)NC(=O)[C@H](CCCCN)NC(=O)[C@H](Cc1ccccc1)NC(=O)[C@H](Cc1ccccc1)NC(=O)[C@H](CCCCN)NC(=O)[C@H](CCCCN)NC(=O)[C@H](Cc1ccccc1)NC(=O)[C@H](CCCNC(=N)N)NC(=O)[C@@H](N)CCCCN)C(=O)N[C@@H](CCCCN)C(=O)N[C@@H](CCCCN)C(=O)N[C@@H](CO)C(=O)N[C@H](C(=O)N[C@@H](CCCCN)C(=O)N[C@@H](CCCCN)C(=O)N[C@@H](CCCNC(=N)N)C(=O)N[C@H](C(=O)N[C@@H](CCCCN)C(=O)N[C@@H](CCCCN)C(=O)N[C@@H](CC(C)C)C(=O)N[C@@H](Cc1ccccc1)C(=O)N[C@@H](CCCCN)C(=O)N[C@@H](CCCCN)C(=O)N1CCC[C@H]1C(=O)N[C@@H](CCCNC(=N)N)C(=O)N[C@H](C(=O)N[C@H](C(=O)N1CCC[C@H]1C(=O)N[C@H](C(=O)N[C@@H](CO)C(=O)N[C@H](C(=O)N1CCC[C@H]1C(=O)N[C@@H](Cc1ccccc1)C(=O)O)[C@@H](C)CC)[C@@H](C)CC)[C@@H](C)CC)C(C)C)C(C)C)C(C)C  MIC (broth microdilution; E27 clinical isolate; 20 h): 4 µg/mL
CN[C@@H]1[C@H](O)[C@H](NC)[C@H]2O[C@]3(O)[C@H](O[C@@H]2[C@H]1O)O[C@H](C)C[C@H]3NC(=O)Cc1cscn1  MIC (microbial growth, broth dilution; K12): 100 µg/mL
CC[C@H](C)[C@H](NC(=O)[C@@H](CCCNC(=N)N)NC(=O)[C@H](CCCNC(=N)N)NC(=O)[C@@H](NC(=O)[C@H](Cc1c[nH]c2ccccc12)NC(=O)[C@H](CCCNC(=N)N)NC(=O)[C@@H]1CCCN1C(=O)[C@H](CCCNC(=N)N)NC(=O)[C@@H]1CCCN1C(=O)[C@H](CC(C)C)NC(=O)[C@H](Cc1ccc(O)cc1)NC(=O)[C@@H]1CCCN1C(=O)[C@@H]1CCCN1C(=O)[C@H](CCCCN)NC(=O)[C@H](CC(=O)O)NC(=O)[C@@H](N)C(C)C)[C@@H](C)O)C(=O)N[C@@H](Cc1ccc(O)cc1)C(=O)N[C@@H](CC(N)=O)C(=O)N[C@H](CCCNC(=N)N)C(N)=O  MIC (broth microdilution; BW25113; 18 h, 37 °C, 25% MHB2): 8 µg/mL
CC[C@H](C)[C@H](N)C(=O)N[C@@H](C)C(=O)N[C@@H](CC(C)C)C(=O)N[C@H](CCC(=O)O)C(=O)N[C@H](C(=O)N[C@H]1CCCCNC(=O)[C@H](CC(N)=O)NC(=O)[C@@H](CC(=O)O)NC(=O)[C@H](Cc2c[nH]cn2)NC(=O)[C@@H](Cc2ccccc2)NC(=O)[C@H]([C@@H](C)CC)NC(=O)[C@@H](CCCN)NC1=O)[C@@H](C)CC  MIC (ATCC 25922; 18 h, 37 °C, 0.3 mM ZnSO4 LB): > 64 µg/mL
CC(C)C[C@H](NC(=O)[C@@H](NC(=O)[C@H](CCCCN)NC(=O)[C@H](CCCCN)NC(=O)[C@H](CC(C)C)NC(=O)[C@H](Cc1c[nH]c2ccccc12)NC(=O)[C@H](CCCCN)NC(=O)[C@H](Cc1c[nH]c2ccccc12)NC(=O)[C@H](CC(C)C)NC(=O)[C@H](CCCCN)NC(=O)[C@H](CCCCN)NC(=O)[C@@H](N)C(C)C)C(C)C)C(N)=O  MIC (24 h, 37 °C, Mueller-Hinton broth, MgCl2 1 mM): 32 µM
CC[C@H](C)[C@H](NC(=O)CNC(=O)[C@H](CS)NC(=O)CNC(=O)[C@H](CO)NC(=O)[C@@H](NC(=O)[C@@H](NC(=O)[C@@H](NC(=O)[C@H](CC(N)=O)NC(=O)[C@@H](NC(=O)[C@H](CO)NC(=O)[C@H](CS)NC(=O)[C@H](C)NC(=O)[C@H](Cc1ccccc1)NC(=O)[C@H](CCCNC(=N)N)NC(=O)[C@H](CS)NC(=O)[C@H](CCCCN)NC(=O)[C@@H](NC(=O)CNC(=O)[C@@H](N)CO)[C@@H](C)CC)[C@@H](C)CC)[C@@H](C)O)[C@@H](C)O)[C@@H](C)CC)C(=O)N[C@@H](CO)C(=O)N[C@@H](CS)C(=O)N[C@@H](CCCCN)C(=O)N[C@@H](Cc1ccccc1)C(=O)O  MIC (broth microdilution; K88, Mueller-Hinton broth; 37 °C): 70.3 µg/mL
CCn1c(-c2ccc(OC)cc2)c(-c2ccc(OC)cc2)n(Cc2c(C)cc(C)cc2C)c1=[Se]  MIC (broth microdilution; carbapenem-resistant BAA-2140; 24 h): > 40 µM
CC(C)Oc1ccc(B(O)O)c(F)n1  MIC (bacterial growth; AmpC-overproducing clinical isolate; without cefotaxime): 1020 µg/mL
CC[C@H](C)[C@H](NC(=O)[C@@H](CCCNC(=N)N)NC(=O)[C@H](CCCNC(=N)N)NC(=O)[C@@H]1CCCN1C(=O)[C@@H]1CCCN1C(=O)[C@H](CCCNC(=N)N)NC(=O)[C@@H]1CCCN1C(=O)[C@H](CCCNC(=N)N)NC(=O)[C@@H]1CCCN1C(=O)[C@H](CC(C)C)NC(=O)[C@H](Cc1ccc(O)c([N+](=O)[O-])c1)NC(=O)[C@@H]1CCCN1C(=O)[C@@H]1CCCN1C(=O)[C@H](CCCCN)NC(=O)[C@H](CC(=O)O)NC(=O)[C@@H](N)C(C)C)C(=O)N[C@@H](Cc1ccc(O)cc1)C(=O)N[C@@H](CC(N)=O)C(=O)N[C@H](CCCNC(=N)N)C(N)=O  MIC (broth microdilution; ATCC 25922; 18 h, 37 °C, 25% MHB2): 16 µg/mL
O=C(O)CN(CC(=O)O)CP(=O)(O)O  MIC (ATCC 25922, no carbapenemase; 32 µg/mL, MIC of meropenem, added: meropenem): ≤ 0.0625 µg/mL
